Results pooled from the literature.
Compare with care: the assays were run in different laboratories. ± gives the spread as reported.

| Compound | assay | test system | conditions | scale | endpoint | result |
| --- | --- | --- | --- | --- | --- | --- |
| CC[C@H](C)[C@H](NC(=O)[C@H](Cc1ccccc1)NC(=O)[C@H](CC(=O)O)NC(=O)[C@H](CCN)NC(=O)[C@H](Cc1ccccc1)NC(=O)[C@H](Cc1ccccc1)NC(=O)[C@H](CCCCN)NC(=O)[C@H](CN)NC(=O)[C@H](CC(C)C)NC(=O)[C@H](CCCNC(=N)N)NC(=O)[C@H](CCSC)NC(=O)[C@H](C)N)C(=O)N[C@@H](CC(C)C)C(=O)N[C@@H](CCC(N)=O)C(=O)N[C@@H](CCCNC(=N)N)C(=O)N[C@@H](CCCCN)C(=O)N[C@@H](CCCCN)C(=O)O | circular dichroism | 20% TFE in PBS | 200 µM, pH 7.4, 25 °C |  | helicity | 17.4% |
| CC[C@H](C)[C@H](NC(=O)CNC(=O)[C@@H](NC(=O)[C@H](Cc1ccc(O)cc1)NC(=O)[C@@H](NC(=O)[C@H](CO)NC(=O)[C@@H](NC(=O)[C@H](C)NC(=O)[C@@H]1CCCN1C(=O)[C@@H](NC(=O)[C@H](Cc1ccccc1)NC(=O)[C@H](CCCCN)NC(=O)[C@H](CCC(=O)O)NC(=O)[C@H](Cc1ccc(O)cc1)NC(=O)[C@H](CC(C)C)NC(=O)[C@H](CC(=O)O)NC(=O)[C@H](CCCNC(=N)N)NC(=O)[C@H](CC(C)C)NC(=O)[C@H](CCCCN)NC(=O)[C@H](CCC(=O)O)NC(=O)[C@H](Cc1ccccc1)NC(=O)[C@@H](NC(=O)[C@H](CCC(=O)O)NC(=O)[C@H](CCCCN)NC(=O)[C@H](CC(C)C)NC(=O)[C@H](Cc1ccc(O)cc1)NC(=O)[C@@H](N)CC(=O)O)C(C)C)[C@@H](C)O)C(C)C)[C@@H](C)O)[C@@H](C)O)C(=O)N[C@@H](Cc1ccccc1)C(=O)N[C@H](C(=O)N[C@@H](CC(=O)O)C(=O)N[C@@H](CCC(N)=O)C(=O)N[C@H](C(=O)N[C@@H](CC(C)C)C(=O)N[C@@H](CO)C(=O)N[C@H](C(=O)N[C@@H](CC(C)C)C(=O)N[C@@H](CCCCN)C(=O)NCC(=O)N[C@@H](CCC(=O)O)C(=O)N[C@@H](CCC(=O)O)C(=O)O)C(C)C)C(C)C)[C@@H](C)O |  | cynomolgus monkey | 80 mg/kg | relative to: 80 mg/kg over 8 mg/kg | clearance ratio | ~4 fold |
| CC(=CCC(O)C(C)=Cc1csc(C)n1)CC=CC(C)C(O)C(C)C(=O)C(C)(C)C(O)CC(=O)O (stereo not drawn) |  | human, plasma | intravenous infusion, 42 mg/m2 KOS-1584, 3 h infusion, cycle 1 |  | AUC | 527 ± 461 ng·h/mL |
| CC[C@H](C)C(=O)N1CCC(NC(=O)Nc2ccc(OC(F)(F)F)c(F)c2)CC1 |  | healthy volunteers | oral, 24 mg single dose |  | subjects with limb injury TEAE | 0% |
| COC(=O)C[C@](O)(CCCC(C)(C)OC(C)=O)C(=O)O[C@@H]1C(OC)=C[C@]23CCCN2CCc2cc4c(cc2[C@H]13)OCO4 |  | CD1 mouse, brain | oral, 1 mg/kg, 24 h, below quantification limit 1.00 ng/mL |  | tissue concentration | not detected |
| O=c1cc(-c2ccccc2)oc2c(Br)c(O)c(O)c(O)c12 |  | C57BL/6 mouse, plasma | oral, 50 mg/kg, single dose |  | MRT(0-t) | 4.5 h |
| CN(C)C(CNC(=O)Nc1cc(C(F)(F)F)ccc1N1CCOCC1)c1ccncc1 (stereo not drawn) |  | mouse, serum | intraperitoneal, 120 mg/kg single dose |  | creatine kinase | 8990 U/L |
| CC[C@H](C)[C@H](NC(=O)[C@H](Cc1ccccc1)NC(=O)[C@H](CCC(=O)O)NC(=O)[C@H](CCCCN)NC(=O)[C@H](C)NC(=O)[C@H](C)NC(=O)[C@H](CCC(N)=O)NC(=O)CNC(=O)[C@H](CCC(=O)O)NC(=O)[C@H](CC(C)C)NC(=O)[C@H](Cc1ccc(O)cc1)NC(=O)[C@H](CO)NC(=O)[C@H](CO)NC(=O)[C@@H](NC(=O)[C@H](CC(=O)O)NC(=O)[C@H](CO)NC(=O)[C@@H](NC(=O)[C@H](Cc1ccccc1)NC(=O)[C@@H](NC(=O)CNC(=O)[C@H](CCC(=O)O)NC(=O)CNC(=O)[C@@H](N)Cc1c[nH]cn1)[C@@H](C)O)[C@@H](C)O)C(C)C)C(=O)N[C@@H](C)C(=O)N[C@@H](Cc1c[nH]c2ccccc12)C(=O)N[C@@H](CC(C)C)C(=O)N[C@H](C(=O)N[C@@H](CCCCN)C(=O)NCC(=O)N[C@@H](CCCNC(=N)N)C(=O)N[C@@H](CSC1CC(=O)N(CCC(=O)NCCCCC(NC(=O)CCN2C(=O)CC(SC[C@H](NC(=O)[C@H](CCCNC(=N)N)NC(=O)CNC(=O)[C@H](CCCCN)NC(=O)[C@@H](NC(=O)[C@H](CC(C)C)NC(=O)[C@H](Cc3c[nH]c4ccccc34)NC(=O)[C@H](C)NC(=O)[C@@H](NC(=O)[C@H](Cc3ccccc3)NC(=O)[C@H](CCC(=O)O)NC(=O)[C@H](CCCCN)NC(=O)[C@H](C)NC(=O)[C@H](C)NC(=O)[C@H](CCC(N)=O)NC(=O)CNC(=O)[C@H](CCC(=O)O)NC(=O)[C@H](CC(C)C)NC(=O)[C@H](Cc3ccc(O)cc3)NC(=O)[C@H](CO)NC(=O)[C@H](CO)NC(=O)[C@@H](NC(=O)[C@H](CC(=O)O)NC(=O)[C@H](CO)NC(=O)[C@@H](NC(=O)[C@H](Cc3ccccc3)NC(=O)[C@@H](NC(=O)CNC(=O)[C@H](CCC(=O)O)NC(=O)CNC(=O)[C@@H](N)Cc3c[nH]cn3)[C@@H](C)O)[C@@H](C)O)C(C)C)[C@@H](C)CC)C(C)C)C(N)=O)C2=O)C(=O)NCCCCCCN)C1=O)C(N)=O)C(C)C (stereo partly drawn) |  | Kunming mouse, plasma | subcutaneous, 50 nmol/kg |  | t1/2 | 108 ± 12 min |
| COc1cc(NC(=O)C(=O)c2c(C)n(Cc3ccc(Cl)cc3)c3ccc(C)cc23)ccn1 |  | female cynomolgus monkey, plasma | intravenous, 1 mg/kg |  | C0 | 2470 ng/mL |

A few entries again:
| Compound | assay | test system | conditions | scale | endpoint | result |
| --- | --- | --- | --- | --- | --- | --- |
| CN(C)C(CNC(=O)Nc1cc(C(F)(F)F)ccc1N1CCOCC1)c1ccncc1 (stereo not drawn) |  | mouse, serum | intraperitoneal, 120 mg/kg single dose |  | creatine kinase | 8990 U/L |
